Published values collected from several papers.
Numbered parts are unrelated; each lists some results of a single study. ± gives the spread as reported.
UniProt Q02750, sequence (whole entry, looked up): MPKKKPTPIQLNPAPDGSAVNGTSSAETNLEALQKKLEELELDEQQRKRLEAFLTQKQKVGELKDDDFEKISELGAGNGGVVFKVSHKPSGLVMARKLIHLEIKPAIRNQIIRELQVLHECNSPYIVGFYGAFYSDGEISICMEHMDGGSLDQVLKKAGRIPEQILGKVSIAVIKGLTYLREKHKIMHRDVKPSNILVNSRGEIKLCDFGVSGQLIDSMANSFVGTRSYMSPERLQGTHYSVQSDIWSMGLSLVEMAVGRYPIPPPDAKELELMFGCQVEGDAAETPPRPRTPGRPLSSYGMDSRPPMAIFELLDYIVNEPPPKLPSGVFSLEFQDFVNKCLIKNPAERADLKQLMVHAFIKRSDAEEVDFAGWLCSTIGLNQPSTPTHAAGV
UniProt Q16566, sequence (whole entry, looked up): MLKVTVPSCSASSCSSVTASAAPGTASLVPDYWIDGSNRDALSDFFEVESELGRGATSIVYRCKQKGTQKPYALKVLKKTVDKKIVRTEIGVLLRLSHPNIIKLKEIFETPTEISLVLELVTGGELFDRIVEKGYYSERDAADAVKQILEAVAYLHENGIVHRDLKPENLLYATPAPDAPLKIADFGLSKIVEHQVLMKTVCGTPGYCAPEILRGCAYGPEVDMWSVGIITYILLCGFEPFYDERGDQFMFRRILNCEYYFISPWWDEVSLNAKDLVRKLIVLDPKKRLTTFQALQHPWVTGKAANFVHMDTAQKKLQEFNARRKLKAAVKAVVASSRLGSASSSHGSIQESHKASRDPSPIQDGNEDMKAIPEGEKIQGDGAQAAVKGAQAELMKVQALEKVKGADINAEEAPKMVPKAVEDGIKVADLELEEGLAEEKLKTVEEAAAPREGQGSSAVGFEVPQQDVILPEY
UniProt Q13976, sequence (whole entry, looked up): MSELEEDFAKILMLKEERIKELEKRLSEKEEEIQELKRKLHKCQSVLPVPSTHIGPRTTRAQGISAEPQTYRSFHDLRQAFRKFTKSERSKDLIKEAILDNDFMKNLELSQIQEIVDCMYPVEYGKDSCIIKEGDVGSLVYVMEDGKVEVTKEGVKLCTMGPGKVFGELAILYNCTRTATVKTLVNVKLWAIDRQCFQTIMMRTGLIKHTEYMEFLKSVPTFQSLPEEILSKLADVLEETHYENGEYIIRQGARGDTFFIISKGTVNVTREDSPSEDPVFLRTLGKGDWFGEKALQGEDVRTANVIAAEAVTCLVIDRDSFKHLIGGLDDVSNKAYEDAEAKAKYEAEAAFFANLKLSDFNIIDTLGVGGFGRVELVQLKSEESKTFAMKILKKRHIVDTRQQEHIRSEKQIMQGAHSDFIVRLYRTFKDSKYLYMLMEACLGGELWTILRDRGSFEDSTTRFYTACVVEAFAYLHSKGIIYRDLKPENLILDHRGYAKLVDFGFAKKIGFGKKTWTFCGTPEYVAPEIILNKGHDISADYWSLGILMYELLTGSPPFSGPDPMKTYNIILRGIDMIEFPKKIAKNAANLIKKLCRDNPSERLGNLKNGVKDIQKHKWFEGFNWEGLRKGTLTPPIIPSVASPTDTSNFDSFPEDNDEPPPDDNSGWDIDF
UniProt P10721, sequence (whole entry, unmodified, looked up): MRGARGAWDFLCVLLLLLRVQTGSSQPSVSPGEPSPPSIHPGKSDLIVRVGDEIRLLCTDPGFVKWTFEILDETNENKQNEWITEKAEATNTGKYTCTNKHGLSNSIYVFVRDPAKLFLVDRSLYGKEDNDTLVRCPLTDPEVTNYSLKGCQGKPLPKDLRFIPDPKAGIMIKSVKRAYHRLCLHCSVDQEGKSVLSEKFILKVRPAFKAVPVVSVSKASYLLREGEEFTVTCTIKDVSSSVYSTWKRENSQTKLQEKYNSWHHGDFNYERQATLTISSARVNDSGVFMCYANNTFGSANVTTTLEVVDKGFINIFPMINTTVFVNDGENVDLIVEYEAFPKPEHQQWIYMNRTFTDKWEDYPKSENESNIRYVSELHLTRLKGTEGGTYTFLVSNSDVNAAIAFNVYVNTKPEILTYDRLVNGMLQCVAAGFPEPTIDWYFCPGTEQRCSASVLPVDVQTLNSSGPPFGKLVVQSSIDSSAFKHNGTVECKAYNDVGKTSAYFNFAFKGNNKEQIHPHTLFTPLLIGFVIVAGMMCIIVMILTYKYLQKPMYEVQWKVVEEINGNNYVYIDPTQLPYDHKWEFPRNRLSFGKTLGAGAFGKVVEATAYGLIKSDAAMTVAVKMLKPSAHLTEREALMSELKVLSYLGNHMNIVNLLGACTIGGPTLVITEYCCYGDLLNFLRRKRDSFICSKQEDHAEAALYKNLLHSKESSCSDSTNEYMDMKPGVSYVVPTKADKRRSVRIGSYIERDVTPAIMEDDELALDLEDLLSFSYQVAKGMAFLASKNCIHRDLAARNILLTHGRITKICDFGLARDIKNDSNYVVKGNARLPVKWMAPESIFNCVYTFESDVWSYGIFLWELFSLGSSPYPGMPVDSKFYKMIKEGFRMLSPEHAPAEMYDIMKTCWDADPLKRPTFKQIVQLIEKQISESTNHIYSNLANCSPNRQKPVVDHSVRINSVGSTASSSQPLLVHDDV
UniProt Q9UKE5, sequence (whole entry, looked up): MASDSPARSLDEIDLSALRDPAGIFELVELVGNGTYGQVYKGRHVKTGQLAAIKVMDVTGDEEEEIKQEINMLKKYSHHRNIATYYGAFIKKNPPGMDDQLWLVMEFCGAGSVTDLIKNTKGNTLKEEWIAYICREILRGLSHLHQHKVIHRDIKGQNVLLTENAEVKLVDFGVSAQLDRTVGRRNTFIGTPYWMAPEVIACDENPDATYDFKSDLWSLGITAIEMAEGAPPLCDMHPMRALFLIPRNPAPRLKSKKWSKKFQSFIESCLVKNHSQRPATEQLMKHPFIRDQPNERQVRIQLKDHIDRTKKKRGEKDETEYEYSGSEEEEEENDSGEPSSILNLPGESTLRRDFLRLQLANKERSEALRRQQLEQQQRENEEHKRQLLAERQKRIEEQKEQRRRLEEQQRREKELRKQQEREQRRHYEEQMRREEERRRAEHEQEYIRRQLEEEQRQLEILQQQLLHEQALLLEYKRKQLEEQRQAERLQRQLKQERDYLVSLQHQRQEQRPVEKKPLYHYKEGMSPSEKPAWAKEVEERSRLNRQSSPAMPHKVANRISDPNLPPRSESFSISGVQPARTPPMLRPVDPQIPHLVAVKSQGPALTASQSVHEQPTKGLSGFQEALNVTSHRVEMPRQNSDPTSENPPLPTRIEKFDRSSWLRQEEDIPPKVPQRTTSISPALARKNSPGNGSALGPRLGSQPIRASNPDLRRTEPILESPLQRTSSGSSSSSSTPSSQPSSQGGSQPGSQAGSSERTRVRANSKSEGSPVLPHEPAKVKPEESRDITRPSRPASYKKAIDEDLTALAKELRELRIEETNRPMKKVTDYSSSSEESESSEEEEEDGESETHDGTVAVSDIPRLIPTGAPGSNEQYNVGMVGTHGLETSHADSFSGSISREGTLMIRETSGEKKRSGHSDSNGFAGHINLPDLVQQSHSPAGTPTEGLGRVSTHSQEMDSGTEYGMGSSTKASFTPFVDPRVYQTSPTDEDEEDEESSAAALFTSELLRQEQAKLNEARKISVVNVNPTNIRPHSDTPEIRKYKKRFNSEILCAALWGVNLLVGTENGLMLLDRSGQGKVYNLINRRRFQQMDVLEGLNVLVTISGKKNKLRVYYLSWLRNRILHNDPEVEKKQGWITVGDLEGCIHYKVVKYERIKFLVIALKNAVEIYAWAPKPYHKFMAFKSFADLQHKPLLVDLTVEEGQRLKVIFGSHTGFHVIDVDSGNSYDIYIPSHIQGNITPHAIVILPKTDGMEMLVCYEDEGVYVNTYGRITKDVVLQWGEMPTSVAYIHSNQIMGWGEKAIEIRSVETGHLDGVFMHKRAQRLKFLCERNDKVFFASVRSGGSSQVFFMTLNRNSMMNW
UniProt Q86Z02, sequence (whole entry, looked up): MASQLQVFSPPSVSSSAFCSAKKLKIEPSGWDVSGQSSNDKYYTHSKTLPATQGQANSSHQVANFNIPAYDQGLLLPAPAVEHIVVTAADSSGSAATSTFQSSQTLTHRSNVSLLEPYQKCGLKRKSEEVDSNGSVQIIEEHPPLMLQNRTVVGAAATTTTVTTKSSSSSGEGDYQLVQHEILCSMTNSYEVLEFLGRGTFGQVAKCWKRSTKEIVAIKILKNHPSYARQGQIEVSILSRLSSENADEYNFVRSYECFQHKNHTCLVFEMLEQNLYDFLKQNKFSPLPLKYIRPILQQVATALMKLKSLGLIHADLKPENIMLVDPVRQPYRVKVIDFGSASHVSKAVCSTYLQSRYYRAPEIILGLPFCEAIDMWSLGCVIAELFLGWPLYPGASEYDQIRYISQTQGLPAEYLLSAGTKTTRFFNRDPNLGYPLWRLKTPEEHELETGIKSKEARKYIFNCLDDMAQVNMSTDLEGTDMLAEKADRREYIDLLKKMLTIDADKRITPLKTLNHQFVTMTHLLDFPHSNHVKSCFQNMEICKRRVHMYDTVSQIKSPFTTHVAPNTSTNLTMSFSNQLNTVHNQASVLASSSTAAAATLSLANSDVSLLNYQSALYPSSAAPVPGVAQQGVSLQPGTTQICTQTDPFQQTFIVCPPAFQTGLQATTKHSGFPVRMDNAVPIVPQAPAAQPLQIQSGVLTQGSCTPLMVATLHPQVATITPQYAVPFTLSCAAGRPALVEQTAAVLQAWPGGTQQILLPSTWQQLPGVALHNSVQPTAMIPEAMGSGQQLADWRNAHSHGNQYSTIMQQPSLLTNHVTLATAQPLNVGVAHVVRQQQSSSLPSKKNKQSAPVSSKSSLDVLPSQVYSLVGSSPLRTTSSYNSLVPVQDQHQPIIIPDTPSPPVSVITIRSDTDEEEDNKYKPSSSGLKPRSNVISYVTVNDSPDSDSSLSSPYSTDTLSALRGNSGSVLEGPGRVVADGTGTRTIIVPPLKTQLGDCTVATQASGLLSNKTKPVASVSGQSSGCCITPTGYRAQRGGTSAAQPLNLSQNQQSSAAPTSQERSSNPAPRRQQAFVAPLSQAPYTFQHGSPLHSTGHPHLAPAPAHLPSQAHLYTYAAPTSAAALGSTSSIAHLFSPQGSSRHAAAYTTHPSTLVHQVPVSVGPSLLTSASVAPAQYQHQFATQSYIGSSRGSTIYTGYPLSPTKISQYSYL

Study 1
Species: mouse
Matrix: microsomes or S9
Concentration: 2 µM
Time: 0.5 h
| Compound | remaining compound [%] |
| --- | --- |
| O=C(CC1(O)C(=O)Nc2cc(Cl)cc(Cl)c21)c1ccccc1 (stereo not drawn) | 61.6 |
| Cc1cc(C)n(-c2nc3cc(Cl)c(Cl)cc3nc2NCc2ccncc2)n1 | 94.6 |
| Cn1cc(C2NC(N)=Nc3nc4ccccc4n32)c2cc(F)ccc21 (stereo not drawn) | 27.6 |
| Cc1cc(N2CCCCC2)nc(N2CCN(S(=O)(=O)c3ccc4cccc5c4c3CC5)CC2)n1 | 0.676 |
| CCNC(=O)c1cc(S(=O)(=O)NC(C(=O)O)C(C)C)cs1 (stereo not drawn) | > 99 |

Study 2
SMILES: O=C1CCc2cc(Nc3cc(OC4CCOCC4)c([N+](=O)[O-])cc3Cl)ccc2N1
Observed: cell-free assay
Method: competition with immobilised ligand
Concentration: 1 µM
| target | remaining binding [%] |
| --- | --- |
| KIT (Homo sapiens, UniProt P10721, L576P) | 100 |
| MAP3K11 (Homo sapiens, UniProt Q16584) | 100 |
| PRKG1 (Homo sapiens, UniProt Q13976) | 89 |
| TNIK (Homo sapiens, UniProt Q9UKE5) | 100 |
| DCLK3 (Homo sapiens, UniProt Q9C098) | 91 |
| MAP2K2 (Homo sapiens, UniProt P36507) | 73 |
| HIPK1 (Homo sapiens, UniProt Q86Z02) | 95 |

Study 3
Structure (SMILES): CCCC(=O)Oc1ccc2[nH]c(C(=O)c3cc4ccccc4[nH]3)cc2c1
Observed: enzyme activity
Action: inhibitor
Concentration: 0.5 µM
Relative to: control
| target | remaining activity [%] |
| --- | --- |
| MAPK11 (Homo sapiens, UniProt Q15759) | 87.7 |
| MARK4 (Homo sapiens, UniProt Q96L34) | 84.1 |
| CAMK4 (Homo sapiens, UniProt Q16566) | 111 |
| DCLK2 (Homo sapiens, UniProt Q8N568) | 89.2 |
| CLK4 (Homo sapiens, UniProt Q9HAZ1) | 90.2 |
| NEK3 (Homo sapiens, UniProt P51956) | 95.5 |
| DDR2 (Homo sapiens, UniProt Q16832) | 89.9 |
| Cyclin-dependent kinase 9, with cyclin K (CDK9, Homo sapiens, UniProt P50750) | 104 |
| MAP2K1 (Homo sapiens, UniProt Q02750) | 99.9 |
| CLK3 (Homo sapiens, UniProt P49761) | 96.9 |
| CDC42BPB (Homo sapiens, UniProt Q9Y5S2) | 99.5 |
| MINK1 (Homo sapiens, UniProt Q8N4C8) | 93.8 |
| MAPK1 (Homo sapiens, UniProt P28482) | 105 |
| TXK (Homo sapiens, UniProt P42681) | 99.1 |

Study 4
SMILES: COc1cc(C(=O)N2CCC(N3CCN(C)CC3)CC2)ccc1Nc1ncc2c(n1)N(C)c1ccccc1C(=O)N2C
| target | observed | concentration | remaining activity [%] |
| --- | --- | --- | --- |
| CDK2-cyclin A | kinase activity | 1 µM | 84 ± 2 |
| IGF-1R | kinase activity | 1 µM | 107 ± 1 |
| MINK1 | kinase activity | 10 µM | 108 ± 7 |
| MLK3 | kinase activity | 1 µM | 94 ± 6 |
| EF2K | kinase activity | 10 µM | 82 ± 3 |
| PKCa | kinase activity | 10 µM | 97 ± 4 |
| NUAK1 (Homo sapiens, UniProt O60285) | – | 10 µM | 19 ± 5 |

A few entries again (study 4):
| target | observed | concentration | remaining activity [%] |
| --- | --- | --- | --- |
| PKCa | kinase activity | 10 µM | 97 ± 4 |
| NUAK1 (Homo sapiens, UniProt O60285) | – | 10 µM | 19 ± 5 |
| CDK2-cyclin A | kinase activity | 1 µM | 84 ± 2 |
